Results of several laboratories.
Every numbered part comes from another study and shows a few of its results, in no order. Substitutions count along the parent as printed.

Sample 1 — target: CCNA1, cyclin fold, Cln2 fusion (human); technique: yeast growth competition, sequencing; matrix: yeast; setting: weak parent motif; baseline: not given; reading: higher = stronger binding
Starting sequence: PKMYT1 docking peptide (human); SFEPRNLLSLFED; partner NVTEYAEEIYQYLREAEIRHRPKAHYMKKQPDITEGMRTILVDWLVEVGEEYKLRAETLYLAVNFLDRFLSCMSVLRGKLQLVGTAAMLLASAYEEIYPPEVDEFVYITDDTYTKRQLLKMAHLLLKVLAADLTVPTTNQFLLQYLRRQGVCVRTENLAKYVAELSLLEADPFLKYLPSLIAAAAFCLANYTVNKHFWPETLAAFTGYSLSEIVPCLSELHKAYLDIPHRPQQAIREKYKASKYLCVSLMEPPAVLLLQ
| Variant | normalised enrichment score |
| --- | --- |
| S1P | 0.119 |
| L7M | 0.372 |
| E12G | -0.0976 |
| R5D | 0.173 |
| N6T | 0.127 |
| L10C | 0.21 |
| P4T | 0.327 |
| S1A | 0.149 |
| L10N | 0.443 |
| E3G | -0.146 |
| F2V | -0.19 |
| L7S | 0.21 |
| N6L | 0.129 |
| F11P | 0.132 |
| E3C | 0.197 |
| S9Q | 0.188 |
| E3P | 0.173 |
| S9A | 0.143 |
| N6K | 0.0995 |
| N6D | 0.144 |
| N6I | 0.326 |
| R5F | 0.166 |
| L10E | 0.459 |
| S1F | 0.104 |
| R5Q | -0.0708 |

Sample 2 — technique: protein-binding microarray; form: double-stranded DNA, one strand shown; matrix: in vitro; concentration: 0.8 µM; setting: whole 60-bp probe, no competitor; reading: higher = stronger binding; shared flanks, not repeated: … GTCTTGATTCGCTTGACGCTGCTG
Target: Centromere-binding protein 1, full length, N-terminal tag (CBF1, Saccharomyces cerevisiae, UniProt P17106, residues 1-351)
UniProt P17106, sequence (whole entry, looked up): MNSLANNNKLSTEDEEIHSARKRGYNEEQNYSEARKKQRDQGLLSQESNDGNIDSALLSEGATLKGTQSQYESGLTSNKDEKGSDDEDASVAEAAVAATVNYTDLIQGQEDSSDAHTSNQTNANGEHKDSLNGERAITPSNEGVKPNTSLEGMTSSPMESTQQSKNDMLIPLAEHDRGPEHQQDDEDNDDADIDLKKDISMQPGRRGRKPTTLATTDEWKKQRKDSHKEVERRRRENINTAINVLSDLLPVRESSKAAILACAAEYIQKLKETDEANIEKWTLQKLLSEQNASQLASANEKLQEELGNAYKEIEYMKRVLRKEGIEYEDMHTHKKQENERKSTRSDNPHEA
| Sequence | fluorescence intensity |
| --- | --- |
| CTATGGAAAGGCCTTCACATGGTGATCCATCTTTTC | 575 a.u. |
| CTAGGAGGATGCCCCCATGTGCTGATTCTCCCCTTC | 484 a.u. |
| GAACACAATATACGTGATTTTAGAATAGAGTATTAG | 613 a.u. |
| CTAAATGGTCATAAACATGTGGTGTGCAATGTGTTC | 785 a.u. |
| CCTAACTACTATAGCCACGATAAATAGCTTCGTACA | 526 a.u. |
| GAAGCATGCGGCTGATGTCAGATTTCGAACATTTAG | 541 a.u. |
| TGTACGAAGCTATTTCACGTGTATATAGTAGTTAGG | 2170 a.u. |
| GAATTCTTATTATTCCATGTGTCTCGGGATACCTAG | 557 a.u. |
| GAACTCAAGAGAAATTTCATGACACTTTTTTAATAG | 509 a.u. |
| GAAAAGTGTCTTGCTCTGATGTATTTGTTTTTTTAG | 495 a.u. |
| CTAGATTCAGGTGCTCATCAGATGCACCACATTTTC | 615 a.u. |
| CTATGTTTTTGCACTGGTGATTTGTAAACCAGATTC | 569 a.u. |
| GAATTTCGGCGAGCCCTCGTGTTGCTATGGTAATAG | 548 a.u. |
| CTACTGTGGCCGTGTCAGGTCACGTGAAGAGAGTTC | 22200 a.u. |
| TGTACGAAGCTATGACATGTGAGTATAGTAGTTAGG | 842 a.u. |
| GAAACAACGATTGATCACGCAGATGACTAACCGTAG | 875 a.u. |
| TGTACGAAGCTATGTGACTTTTGTATAGTAGTTAGG | 558 a.u. |
| CTATAGGTTCATCTTCTGATGTTATGTCGAGAGTTC | 545 a.u. |
| CTAGAAAGAAAAAAACGCGTGGCGGGTAAAGAATTC | 520 a.u. |
| CTATTCCCAGCTTTTCACGTGCGAGGTGGACTATTC | 2540 a.u. |
| CTATCTTCTATGTAGCATCAGAAAGAAACACCATTC | 588 a.u. |
| GAACTGATGCGATTCCTCGTGTACCATGATCTGTAG | 610 a.u. |
| CTACTACCATGAATGCACGTGTCGCTGTCCTCATTC | 5650 a.u. |
| GAATGTACCTAGCATCATGTATTTATTAAGTTTTAG | 506 a.u. |

Sample 3 — technique: aptamer microarray, sandwich; form: DNA with 2'F-ANA; matrix: in vitro; concentration: 200 nM; added: Cy3 exosite-II aptamer, 400 nM; reading: higher = stronger binding; sequence: GGTTGGTGTGGTTGG
Target: Prothrombin, mature alpha-thrombin (F2, Homo sapiens, UniProt P00734)
Setting: whole 15-mer aptamer, many near background
| Modification | mean fluorescence intensity [a.u.] |
| --- | --- |
| 2'F-ANA at 4 5 6 12 15 | 138 |
| 2'F-ANA at 1 3 6 10 12 13 | 98.2 |
| 2'F-ANA at 2 3 4 6 7 | 640 |
| 2'F-ANA at 3 5 7 9 11 13 15 | 126 |
| 2'F-ANA at 1 5 7 8 14 | 45.4 |
| 2'F-ANA at 2 4 5 12 14 | 84.9 |
| 2'F-ANA at 2 3 5 8 13 | 81.4 |
| 2'F-ANA at 3 4 10 12 14 15 | 207 |
| 2'F-ANA at 5 11 12 13 | 143 |
| 2'F-ANA at 3 4 6 7 8 11 13 14 | 310 |
| 2'F-ANA at 5 6 7 8 10 15 | 59.3 |
| 2'F-ANA at 1 2 3 4 5 6 7 8 10 11 14 | 50.5 |
| 2'F-ANA at 2 4 7 9 10 11 12 15 | 117 |
| 2'F-ANA at 1 4 6 7 9 | 109 |
| 2'F-ANA at 1 2 3 10 11 14 | 57.2 |
| 2'F-ANA at 1 4 5 7 8 9 10 11 12 | 58.4 |
| 2'F-ANA at 4 7 8 9 10 12 15 | 126 |
| 2'F-ANA at 2 3 5 6 8 10 12 | 58.7 |
| 2'F-ANA at 2 3 6 7 9 11 14 | 310 |
| 2'F-ANA at 1 2 3 4 6 7 8 10 12 13 | 66.7 |

Sample 4 — technique: RNA Bind-n-Seq; form: RNA; matrix: in vitro; concentration: 365 nM; baseline: no-protein control; reading: higher = stronger binding
Target: RNA binding protein fox-1 homolog 2, RRM domain, GST-SBP tag (RBFOX2, Homo sapiens, UniProt O43251-10, residues 100-194)
Setting: natural RNA segment, single round, ends assumed
Shared flanks, not repeated: GGGAGUUCUACAGUCCGACGAUC … UGGAAUUCUCGGGUGCCAA
Construct (chain): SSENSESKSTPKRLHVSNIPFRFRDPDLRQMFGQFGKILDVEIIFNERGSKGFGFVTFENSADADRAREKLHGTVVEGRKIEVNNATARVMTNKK
| Sequence | RBNS enrichment (R) |
| --- | --- |
| GAACACCUUGGUUCUGGUUAAACAGCUGUACUUUUGAUAGCUGUGCCAGGAAGGGUUAGGACCAACUACAAAUUAAUGUUGGUUGUCAAAUGUAGUGUGUUUCCCUAACU | 0.254 |
| UCUGCUUUCCUAUGACUUCUGCCUACUGGGUCUUGUUUUGUUCCUUGGAUCGAAACAGAACCGUUUACCCACCUUUACAAACUAGAGAAUAAAGAUUUGGUUUUAGAACU | 0.215 |
| UUUGUACUGUAUUCUUACUGUGUGACUAGAUGCGUGAGCGCUUUACAUUAGAAGGAACCUGGUUAGAGCUCGCUCCUCCUGUCUUUGUGUGGCAUUUGUGUUCCAUUACC | 0.544 |
| GGCUGCACUACAAUGUCCACAGGCAAGAGGCCCCCAGGCCACCAGCAAAUGUCCCGCCCCUGGGGACAGUGCGCCCGCUCGCCCUUGGUUGUGCUGGGCAGCAUUUGUAC | 1.01 |
| GUUCCCUGUUAACCUUCUGUUACUCCCUGGGAGAAAGGCGCUGAGCGUGGCAUGCAGGUGUCUUUGCUGUGUUUUUCUCCACUUCUAAAUGGUUCCUGGUUCCUUUCUUC | 0.276 |
| AGCACGUAGAACUCCCUGCAUAAGCCAAGCCACCAGGCUCCUAUGCCUCUCUUAGUCUUCCCCCUAGAGCUAGGCGCCUACCAGGUGUAUAUAUGUAGCAUACUUUGGGG | 0.252 |
| UAAGGAAGUGCUUUAUCAGCUAAACCCAACAUUGAUAACUUUGGUAAUUUUUUUAAAAAGUUAUACUUGUAUUAGCAAGUUUUUUUUUUUUUCCCCCACCGCAACCUCCA | 0.651 |
| CAUCGGAUGUCAGCCCCCUGCGGCCCCAGCUGGAGAUGGAUAUGAGACUAGUCAAGAUGUGAAUGCUAAUUGGAGAGAAAUAUAAUUUUAGGAAGAUGCACAUUGAUGUG | 0.496 |
| ACACUUCCACCCUUUUUUCUAAGUGUUCGUCUUUAGUUUUGAUUUUGGAAAGAUGUUAAGCAUUUAUUUUUAGUUAAAAAUAAAAACUAAUUUCAUACUAUUUAGAUUUU | 0.776 |
| GAGGCCAUCUCUCUUCCAGAGAGAGGCAGCAUUGGCCCACAGGAUAAGCCUCAGGCCCUGGGAAACCUCCCGACCCCUGCACCUUCGUUGGAGCCCCUGCAUCCCCUGGG | 0.916 |
| AACCACGCGGGGGCCUUGAGGGACGCUUUGUCUGUCGUGAUGGGGCAAGGGCACAAGUCCUGGAUGUUGUGUGUAUCGAGAGGCCAAAGGCUGGUGGCAAGUGCACGGGG | 1.59 |
| UUAAAAUACAAAAAUUUAAAUCUGACAUUUAAUUGUUUUAUAAUAAUCCAAACUCUAUGAAAGCAAUUUUAAAAAUUAUUAAGGUUUUAUGAAGUUGACAAAAUCUAACU | 0.495 |

Sample 5 — technique: protein binding microarray; form: double-stranded DNA, one strand shown; matrix: in vitro; concentration: not given; baseline: not given; reading: higher = stronger binding
Target: Histone acetyltransferase KAT6A, winged helix 2, GST fusion (KAT6A, Homo sapiens, UniProt Q92794, residues 85-181)
Setting: 8-mer, flanks averaged, mean of 2 arrays, mostly near background
Construct (chain): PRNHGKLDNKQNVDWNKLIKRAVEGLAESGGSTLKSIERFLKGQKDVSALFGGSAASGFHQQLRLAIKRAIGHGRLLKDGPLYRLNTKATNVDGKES
| Sequence | E-score |
| --- | --- |
| ACTTGGCG | -0.0664 |
| ATAGGAAC | -0.164 |
| CAATGGCG | 0.0542 |
| CACTTGAA | 0.0261 |
| GCGATGTA | -0.0197 |
| GCGCCAAA | 0.0521 |
| CCTTTCCG | 0.0417 |
| CGTCTAAA | -0.123 |
| AGGATTTG | 0.00129 |
| CAGTAAGG | -0.0405 |
| AAATGCTA | 0.147 |
| TCGCGCCA | 0.231 |
| AATCTTCC | -0.0157 |
| GCTTTCAA | 0.119 |
| CTGTAGAA | -0.0313 |
| AGTAACTC | -0.0156 |
| AACTCCGT | 0.0378 |
| ACCAAGCT | -0.0441 |
| ACATGCCC | 0.00744 |
| AACGGGAC | -0.12 |
| AGGGCATG | 0.0478 |
| TAGCTCGA | -0.0332 |
| ATCGACTC | -0.089 |
| ACTGGTTC | 0.043 |
| CGGGCCTC | 0.231 |
